Results of several laboratories.
± gives the spread as reported.
Organism: Enterococcus faecium

Compound | test | system | conditions | MIC
CCN(CC)CCCN1/C(=C/c2cc[n+](C)c3ccccc23)Sc2ccccc21 | microbial growth, broth dilution | ATCC700221 | – | 2 µg/mL
Cc1csc(NCc2cc(N(C)C)c3c(c2O)C(=O)C2=C(O)[C@]4(O)C(=O)C(C(N)=O)=C(O)[C@@H](N(C)C)[C@@H]4C[C@@H]2C3)n1 | – | 494, Tet M and Tet L | – | 1 µg/mL
CC[P+](CC)(CC)[Au-][S][C@@H]1O[C@H](CO)[C@@H](O)[C@H](O)[C@H]1O | – | ATCC 700221 | – | 0.1 µM
C=C(NC(=O)C(=C)NC(=O)c1csc(C2=NC3c4csc(n4)C4NC(=O)c5csc(n5)C(C(C)(O)C(C)O)NC(=O)C5CSC(=N5)C(=CC)NC(=O)C(C(C)O)NC(=O)c5csc(n5)C3(CC2)NC(=O)C(C)NC(=O)C(=C)NC(=O)C(CCSC)NC(=O)C(C(C)CC)NC2C=Cc3c(C(C)O)cc(nc3C2O)C(=O)OC4C)n1)C(N)=O (stereo not drawn) | broth microdilution | ATCC 12952 VRE | 18 h, 37 °C | 0.007 µg/mL
CNC(CC(C)C)C(=O)NC1C(=O)NC(CC(N)=O)C(=O)NC2C(=O)NC3C(=O)NC(C(=O)NC(C(=O)NC(CCCNC(=N)N)C(=O)OC)c4cc(O)cc(O)c4-c4cc3ccc4O)C(O)c3ccc(c(Cl)c3)Oc3cc2cc(c3OC2OC(CO)C(O)C(O)C2OC2CC(C)(N)C(O)C(C)O2)Oc2ccc(cc2Cl)C1O (stereo not drawn) | broth microdilution | ATCC BAA-2317 VanA | – | 8 µg/mL
CCn1[c]([Au-][Cl])[n+](CC)c2ccc(C(=O)OC)cc21 | broth dilution | DSM 20477 | 20 h, 37 °C | 11.5 ± 5 µM
CN(C)c1cc(CNCc2ccncc2)c(O)c2c1C[C@H]1C[C@H]3[C@H](N(C)C)C(O)=C(C(N)=O)C(=O)[C@@]3(O)C(O)=C1C2=O | – | 494, Tet M and Tet L | – | 4 µg/mL
CC(C)C[C@H](NC(=O)[C@H](CC(N)=O)NC(=O)[C@H](CCCNC(=N)N)NC(=O)[C@@H](CC(C)C)NC(=O)[C@H](Cc1ccc(-c2ccccc2)cc1)NC(=O)[C@H](CC(=O)O)NC(=O)[C@H](CCCCN)NC(=O)[C@@H](CC(C)C)NC(=O)[C@H](CCCNC(=N)N)NC(=O)[C@H](CCC(N)=O)NC(=O)[C@@H](NC(=O)[C@@H](CC(C)C)NC(=O)[C@H](CCCNC(=N)N)NC(=O)[C@H](CCCCN)NC(=O)[C@H](Cc1ccc(-c2ccccc2)cc1)NC(=O)CN)C(C)C)C(=O)N[C@H](C(N)=O)C(C)C | broth microdilution | ATCC 51559 | – | 3.1 µM
C=C(NC(=O)C(=C)NC(=O)c1csc(C2=NC3c4csc(n4)C4NC(=O)c5csc(n5)C(C(C)(O)C(C)O)NC(=O)C5CSC(=N5)C(=CC)NC(=O)C(C(C)O)NC(=O)c5csc(n5)C3(CC2)NC(=O)C(C)NC(=O)C(=C)NC(=O)C(=C)NC(=O)C(C(C)CC)NC2C=Cc3c(C(C)O)cc(nc3C2O)C(=O)OC4C)n1)C(N)=O (stereo not drawn) | broth microdilution | ATCC 12952 VRE | 18 h, 37 °C | 0.008 µg/mL
CCc1[nH]c(C(=O)N[C@@H]2CCN(c3nnc(C(C)(C)O)s3)C[C@@H]2OC)nc1Cl | – | EFM19-1 | – | 0.5 µg/mL
CN(C)c1cc(CNCCC(C)(C)C)c(O)c2c1C[C@H]1C[C@H]3[C@H](N(C)C)C(O)=C(C(N)=O)C(=O)[C@@]3(O)C(O)=C1C2=O | – | 494, Tet M and Tet L | – | 1 µg/mL
CNC(CC(C)C)C(=O)NC1C(=O)NC(CC(N)=O)C(=O)NC2C(=O)NC3C(=O)NC(C(=O)NC(C(=O)NCCCNC(=N)N)c4cc(O)cc(O)c4-c4cc3ccc4O)C(O)c3ccc(c(Cl)c3)Oc3cc2cc(c3OC2OC(CO)C(O)C(O)C2OC2CC(C)(NCc3ccc(-c4ccc(Cl)cc4)cc3)C(O)C(C)O2)Oc2ccc(cc2Cl)C1O (stereo not drawn) | – | ATCC BAA-2317 VanA | −POPE | 0.3 µg/mL
CN(C)c1cc(CNCc2ccco2)c(O)c2c1C[C@H]1C[C@H]3[C@H](N(C)C)C(O)=C(C(N)=O)C(=O)[C@@]3(O)C(O)=C1C2=O | – | 494, Tet M and Tet L | – | 0.5 µg/mL
CCn1[c]([Au-]([Cl])([Cl])[Cl])[n+](CC)c2ccc(C(=O)OC)cc21 | broth dilution | DSM 20477 | 20 h, 37 °C | 3.7 µM
CN(C)c1cc(CNCc2ccccc2)c(O)c2c1C[C@H]1C[C@H]3[C@H](N(C)C)C(O)=C(C(N)=O)C(=O)[C@@]3(O)C(O)=C1C2=O | – | 494, Tet M and Tet L | – | 1 µg/mL
CNC(CC(C)C)C(=O)NC1C(=O)NC(CC(N)=O)C(=O)NC2C(=O)NC3C(=O)NC(C(=O)NC(C(=O)NCCCNC(=N)N)c4cc(O)cc(O)c4-c4cc3ccc4O)C(O)c3ccc(c(Cl)c3)Oc3cc2cc(c3OC2OC(CO)C(O)C(O)C2OC2CC(C)(N)C(O)C(C)O2)Oc2ccc(cc2Cl)C1O (stereo not drawn) | – | ATCC BAA-2317 VanA | together with: +POPE 100 µg/mL | 4 µg/mL
CCN(CC)CCCN1/C(=C/c2cc(C)[n+](C)c3ccccc23)Sc2ccccc21 | microbial growth, broth dilution | ATCC49624 | – | 16 µg/mL
CNC(CC(C)C)C(=O)NC1C(=O)NC(CC(N)=O)C(=O)NC2C(=O)NC3C(=O)NC(C(=O)NC(C(=O)NC(CCCNC(=N)N)C(N)=O)c4cc(O)cc(O)c4-c4cc3ccc4O)C(O)c3ccc(c(Cl)c3)Oc3cc2cc(c3OC2OC(CO)C(O)C(O)C2OC2CC(C)(N)C(O)C(C)O2)Oc2ccc(cc2Cl)C1O (stereo not drawn) | broth microdilution | ATCC BAA-2317 VanA | – | 4 µg/mL
CN(C)c1cc(CN2CCCCC2)c(O)c2c1C[C@H]1C[C@H]3[C@H](N(C)C)C(O)=C(C(N)=O)C(=O)[C@@]3(O)C(O)=C1C2=O | – | 494, Tet M and Tet L | – | 0.125 µg/mL
CC(C)C[C@H](NC(=O)[C@H](CC(N)=O)NC(=O)[C@H](CCCNC(=N)N)NC(=O)[C@@H](CC(C)C)NC(=O)[C@H](Cc1ccccc1)NC(=O)[C@H](CC(=O)O)NC(=O)[C@H](CCCCN)NC(=O)[C@@H](CC(C)C)NC(=O)[C@H](CCCNC(=N)N)NC(=O)[C@H](CCC(N)=O)NC(=O)[C@@H](NC(=O)[C@@H](CC(C)C)NC(=O)[C@H](CCCNC(=N)N)NC(=O)[C@H](CCCCN)NC(=O)[C@H](Cc1ccccc1)NC(=O)CN)C(C)C)C(=O)N[C@H](C(N)=O)C(C)C | broth microdilution | ATCC 51559 | – | > 100 µM
C[C@H]1COc2c(N3CCN(C)CC3)c(F)cc3c(=O)c(C(=O)N[C@@H](CCCNC(=N)N)C(=O)N[C@@H](Cc4ccc(-c5ccccc5)cc4)C(=O)N[C@@H](CCCNC(=N)N)C(=O)N[C@@H](Cc4ccc(-c5ccccc5)cc4)C(=O)N[C@@H](CCCNC(=N)N)C(N)=O)cn1c23 | broth microdilution | ATCC 2316 | – | 5 µM
CC(C)C[C@H](NC(=O)[C@H](CC(N)=O)NC(=O)[C@H](CCCNC(=N)N)NC(=O)[C@@H](CC(C)C)NC(=O)[C@H](Cc1ccc2ccccc2c1)NC(=O)[C@H](CC(=O)O)NC(=O)[C@H](CCCCN)NC(=O)[C@@H](CC(C)C)NC(=O)[C@H](CCCNC(=N)N)NC(=O)[C@H](CCC(N)=O)NC(=O)[C@@H](NC(=O)[C@@H](CC(C)C)NC(=O)[C@H](CCCNC(=N)N)NC(=O)[C@H](CCCCN)NC(=O)[C@H](Cc1ccc(C(F)(F)F)cc1)NC(=O)CN)C(C)C)C(=O)N[C@H](C(N)=O)C(C)C | broth microdilution | ATCC 51559 | – | 3.1 µM
CN(C)c1cc(CN2CCc3ccccc3C2)c(O)c2c1C[C@H]1C[C@H]3[C@H](N(C)C)C(O)=C(C(N)=O)C(=O)[C@@]3(O)C(O)=C1C2=O | – | 494, Tet M and Tet L | – | 0.25 µg/mL
CN1CCC(NCCC2(Cc3ccc(Cl)cc3)CCCCC2)CC1 | microbial growth | VRE | 10 h | 200 µM

For quick reference, copied from above:
Compound | test | system | conditions | MIC
CNC(CC(C)C)C(=O)NC1C(=O)NC(CC(N)=O)C(=O)NC2C(=O)NC3C(=O)NC(C(=O)NC(C(=O)NC(CCCNC(=N)N)C(N)=O)c4cc(O)cc(O)c4-c4cc3ccc4O)C(O)c3ccc(c(Cl)c3)Oc3cc2cc(c3OC2OC(CO)C(O)C(O)C2OC2CC(C)(N)C(O)C(C)O2)Oc2ccc(cc2Cl)C1O (stereo not drawn) | broth microdilution | ATCC BAA-2317 VanA | – | 4 µg/mL
CN(C)c1cc(CN2CCCCC2)c(O)c2c1C[C@H]1C[C@H]3[C@H](N(C)C)C(O)=C(C(N)=O)C(=O)[C@@]3(O)C(O)=C1C2=O | – | 494, Tet M and Tet L | – | 0.125 µg/mL
